Assay results from different studies.
Parts stem from different laboratories: compare values within a part only. Substitutions count along the parent as printed.

Sample 1
Target: CCNE2, cyclin fold, Cln2 fusion (human)
Technique: yeast growth competition, sequencing
Sample: yeast
Setting: strong parent motif
Relative to: not given
Reading: higher = stronger binding
Endpoint: normalised enrichment score
Parent: CDKN1B docking peptide (human); PSACRNLFGPVDH
YSACRNLFGPVDH [P1Y]: 1.64
PSACRNLLGPVDH [F8L]: 0.121
PSACRNLRGPVDH [F8R]: 0.636
PSACRNLHGPVDH [F8H]: 0.303

Sample 2
Target: Interferon regulatory factor 5, full length, phosphomimetic (IRF5, Homo sapiens, UniProt Q13568-2, residues 1-514, S451D/S453D/S456D/S462D)
Technique: protein-binding microarray
Form: double-stranded DNA, one strand shown
Sample: in vitro
Concentration: 940 nM top
Setting: 60-bp whole probe
Added: salmon DNA 0.4 mg/ml
Relative to: random background probes
Reading: higher = stronger binding
Endpoint: fitted relative affinity
Constant ends, left off below: GCCTAGCAC … GTGCTAGGTCTTGATTCGCTTGACGCTGCTG
ATTGGTCTTCACTTGGCAAA: 0.133 z-score
GTAGGTCTCCTACTGCTTTA: -0.422 z-score
TTAGATTCCCTTTTCCTTTA: 0.846 z-score
GCTGACACTAACACAGTGGT: -0.55 z-score
TTAGGTTCCGGTTTCGATTA: 7.94 z-score
TCAATTTTTTTTTTCTAACT: 1.8 z-score

Sample 3
Target: RNA binding protein fox-1 homolog 2, RRM domain, GST-SBP tag (RBFOX2, Homo sapiens, UniProt O43251-10, residues 100-194)
Technique: RNA Bind-n-Seq
Form: RNA
Sample: in vitro
Concentration: 365 nM
Setting: natural RNA segment, single round, ends assumed
Relative to: no-protein control
Reading: higher = stronger binding
Endpoint: RBNS enrichment (R)
Constant ends, left off below: GGGAGUUCUACAGUCCGACGAUC … UGGAAUUCUCGGGUGCCAA
Residues (chain): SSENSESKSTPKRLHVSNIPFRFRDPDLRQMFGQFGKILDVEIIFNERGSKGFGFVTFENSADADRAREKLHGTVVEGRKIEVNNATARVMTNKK
AUCCUAGUAUGAUUGGUUAUAUCAAGAAUUGACAAGUGCAGAUAAAGACCUUUCCCAUAGGAGUUCAAGAACUGGACUGUUGUGAAGAAGUCAGCUCUUAUCUCAGGUUG: 0.617
GCAGAGAGAAACCAUGGGAACUCCCUGUGGGGAACACUCAAGAAGGCCAAGCCUCAGCAGGAAAGUGCAGUAGAAGAUACUGUUUUACAGACAAGUCCUGUGUAACCUGC: 0.315
UAGACUGGAGUUCAAGCAAGUAACAGCAGUGUGUGUCUUAGGAACUGAGAUUCCAGAUAGAGAGGCUUCGGUUCCUGCUACUUCCCUGUUUGUCUGGGGAGUAGAGGAAU: 1.21
CCAAGGUGCUAUGGCGCAAAGGGCCCUUCUGCAGAAACCCAGUUUUCCUACCUGGGCUGGUUUCUUUUCUAUAGGCUGUCUUGUCUUUCUUAUGCUAACCACUAUUUUAA: 0.487
AGUUUAAGAGUUCCGAAACUGGAGAGUCGGGCUGAGGAACUGAGUUAGGUUGAACUUGGGAAAGCAAGCCCAAGUUCAACCUAACUCCUGCUGUAAAAUGGAGAGAACUG: 0.885

Mixed results
PhoQ, residues 284 288 289 292 302 303 ASTSDA — fold induction (PhoP, residues 12 14 15 18 19 AQALL (Escherichia coli, UniProt P23836); Sort-seq, item: YFP reporter; E. coli; PhoQ-PhoP variant library, added: 10 µM Mg2+; relative to: high Mg2+ state, higher = stronger signaling): 6.59

Repeated from above (mixed results):
PhoQ, residues 284 288 289 292 302 303 ASTSDA — fold induction (PhoP, residues 12 14 15 18 19 AQALL (Escherichia coli, UniProt P23836); Sort-seq, item: YFP reporter; E. coli; PhoQ-PhoP variant library, added: 10 µM Mg2+; relative to: high Mg2+ state, higher = stronger signaling): 6.59
